Assay results of several laboratories.
Numbers after ± are the reported error.
Cell line: A549

The TGI of `CC/C=C\C/C=C\C/C=C\C/C=C\C/C=C\C/C=C\CCC(=O)Nc1ccn(C2OC(CO)C(O)C2(F)F)c(=O)n1` (stereo not drawn) is reported as 15.4 µM (NCI60 screen).
`COc1ccc(C([O-])=CC(=O)c2ccc(C(C)(C)C)cc2)cc1.[Cl-].[Ru+2].c1ccc(-c2cccc(-c3ccccn3)n2)nc1`: “lowest concentration inhibiting OCR” 10 µM (oxygen consumption rate, Seahorse extracellular flux; 1 h, dark).
For `CCN1CCC2(CC1)C/C(=N\NC(=O)Nc1ccccc1)c1ccccc1O2`, “cell cycle distribution” read 37.3% (PI staining, flow cytometry; concentration not given, %S).
`COc1cc(C(=O)c2[nH]c(N)nc2-c2cccs2)cc(OC)c1OC` gave an inhibition of 50% (cell migration; 0.1 µM, 10 h).
`Cc1cccc(-c2cccc(C)n2)n1.Cc1cccc(-c2cccc(C)n2)n1.[Cl-].[Cl-].[Ru+2].c1ccc(-c2ccnc3c2ccc2c(-c4ccccc4)ccnc23)cc1` has an EC50 of 9.7 µM (cell growth or viability; 72 h, dark).
Under colony formation, `O=C(NCc1cc(F)cc(F)c1)[C@@]1(O)CCN(c2ccc3[nH]ccc3c2)C1=O` is recorded as “inhibited” (1e-05, 2.5e-06, 5e-07 mol/L).
`COc1cc(CNC(=O)C[C@H](C)CCC=C(C)C)ccc1OCc1cn(-c2ccc(Cl)c(Cl)c2)nn1`: “cells in S phase” 50.6% (flow cytometry propidium iodide; 10 µM, 48 h).
`N=C(N)NCCC[C@@H]1NC(=O)[C@H](CCCCN)NC(=O)[C@@H](Cc2ccc(O)cc2)NC(=O)[C@H](CC(=O)O)NC(=O)CNC1=O` has a GI50 of 61 µM (cell growth or viability, MTT).
`[Cl-].[Cl-].[Ru+2].c1ccc(-c2ccccn2)nc1.c1ccc(-c2ccccn2)nc1.c1ccc(-c2ccnc3c2ccc2c(-c4ccccc4)ccnc23)cc1`: “lowest concentration inhibiting OCR” > 1 µM (oxygen consumption rate, Seahorse extracellular flux; 1 h, dark).
The gap closure of `COc1ccc([C@@H]2CC(=O)c3c(O)cc(O[C@@H]4O[C@H](CO[C@@H]5O[C@@H](C)[C@H](O)[C@@H](O)[C@H]5O)[C@@H](O)[C@H](O)[C@H]4O)cc3O2)cc1O` is reported as 5.16 ± 0.79% (cell migration, scratch; 150 µg/mL, 48 h).
For `Cc1cc(-c2ccccc2)c2ccc3c(-c4ccccc4)cc(C)nc3c2n1.[Cl-].[Cl-].[Ru+2].c1ccc(-c2ccccn2)nc1.c1ccc(-c2ccccn2)nc1`, the cellular uptake was 0.6 nmol/10⁶ cells (LC-MS/MS; 3 µM, end of incubation).
For `C#Cc1cccc(Nc2ncnc3cc(OC)c(OCCCN4CCOCC4)cc23)c1`, the recovery time was 12 h (EGFR phosphorylation, Western blot, item: p-EGFR and p-AKT; concentration not given, 2 h then washout).
For `Nc1cccc[n+]1Cc1cccc(C[n+]2ccccc2N)c1`, “cell population in G0/G1 phase” read 36.8% (flow cytometry; 15 µM, 24 h).
`Cc1ccc(C(C)C)cc1.Cc1ncc(CO)c(C=NNC2=Nc3ccccc3-c3[nH]c4ccc(Br)cc4c3C2)c1O.[Cl-].[Cl][Ru+]` has an inhibition of ~30% (DNA synthesis, BrdU incorporation; 5 µM, 24 h).
With `O=c1c2ccccc2[se]n1CCCCCCn1[se]c2ccccc2c1=O` the maximal inhibition was 100% (cell growth, EZMTT).
`[Cl-].[Cl-].[Ru+2].c1ccc2nc(-c3ccc4ccccc4n3)ccc2c1.c1cnc2c(c1)ccc1cccnc12.c1cnc2c(c1)ccc1cccnc12`: “lowest concentration inhibiting OCR” 10 µM (oxygen consumption rate, Seahorse extracellular flux; 1 h, together with: indigo light 450 nm, 29.1 J/cm2).
`FC(F)(F)c1ccnc(-c2cc(C(F)(F)F)ccn2)c1.FC(F)(F)c1ccnc(-c2cc(C(F)(F)F)ccn2)c1.[Cl-].[Cl-].[Ru+2].c1csc(-c2ccc(-c3ccc(-c4ccc(-c5nc6c7cccnc7c7ncccc7c6[nH]5)s4)s3)s2)c1` gave an EC50 of 0.077 µM (cell viability; 100 J/cm2 light, normoxia, together with: visible light 400-700 nm).
Under “cells in G2 phase”, `CN(C)c1cccc2c(S(=O)(=O)NCCCCCC(=O)NO)cccc12` is recorded as 15.3% (cell cycle, propidium iodide flow cytometry; 10 µM).
